# Published values gathered from unrelated publications.
# Each line is one published result; not all experiments were run side by side. Several values in a cell are separate wells, animals, samples, runs or records. ± marks the error that the study gave.
# Sequence of UniProt P08069 (whole entry, looked up): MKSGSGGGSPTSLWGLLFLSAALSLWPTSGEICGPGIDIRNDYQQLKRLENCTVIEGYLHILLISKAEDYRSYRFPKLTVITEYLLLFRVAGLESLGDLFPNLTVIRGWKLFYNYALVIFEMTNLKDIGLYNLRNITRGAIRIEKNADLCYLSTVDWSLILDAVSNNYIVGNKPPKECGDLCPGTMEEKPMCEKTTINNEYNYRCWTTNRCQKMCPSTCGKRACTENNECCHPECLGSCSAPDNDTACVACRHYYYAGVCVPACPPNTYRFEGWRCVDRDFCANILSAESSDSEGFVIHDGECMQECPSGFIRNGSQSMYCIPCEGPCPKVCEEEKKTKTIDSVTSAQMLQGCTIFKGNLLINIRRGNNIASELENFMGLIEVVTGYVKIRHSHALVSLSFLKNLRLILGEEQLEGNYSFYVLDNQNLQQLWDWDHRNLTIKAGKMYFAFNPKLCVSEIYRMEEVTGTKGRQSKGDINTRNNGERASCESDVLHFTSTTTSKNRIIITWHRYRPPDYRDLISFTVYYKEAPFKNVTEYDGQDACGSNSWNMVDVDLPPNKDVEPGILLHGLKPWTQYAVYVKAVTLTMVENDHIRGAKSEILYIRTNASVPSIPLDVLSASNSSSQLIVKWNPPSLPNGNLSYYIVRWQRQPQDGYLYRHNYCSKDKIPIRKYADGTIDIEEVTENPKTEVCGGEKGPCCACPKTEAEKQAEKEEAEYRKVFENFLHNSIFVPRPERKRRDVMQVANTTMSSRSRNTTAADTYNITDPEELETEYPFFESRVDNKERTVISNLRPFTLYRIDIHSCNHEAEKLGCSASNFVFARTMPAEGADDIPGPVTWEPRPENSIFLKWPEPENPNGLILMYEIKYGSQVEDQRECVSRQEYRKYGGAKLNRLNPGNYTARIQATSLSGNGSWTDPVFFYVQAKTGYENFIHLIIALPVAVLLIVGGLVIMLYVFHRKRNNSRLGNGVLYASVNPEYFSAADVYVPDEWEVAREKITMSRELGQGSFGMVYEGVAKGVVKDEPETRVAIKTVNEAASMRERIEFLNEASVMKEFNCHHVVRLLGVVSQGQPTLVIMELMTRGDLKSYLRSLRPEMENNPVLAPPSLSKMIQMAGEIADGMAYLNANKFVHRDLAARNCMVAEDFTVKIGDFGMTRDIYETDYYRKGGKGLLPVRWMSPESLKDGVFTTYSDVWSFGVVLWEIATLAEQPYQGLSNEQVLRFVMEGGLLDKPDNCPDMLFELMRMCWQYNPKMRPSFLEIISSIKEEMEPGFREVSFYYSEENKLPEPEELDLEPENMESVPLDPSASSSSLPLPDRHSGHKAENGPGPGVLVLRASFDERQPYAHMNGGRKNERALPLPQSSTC
SMILES,target or system,assay,system,conditions,how to read,measurement,result
Oc1ccc(Cc2ccc(O)cc2)cc1,,ABTS radical,,300 µg/mL,,radical scavenging,81.3 ± 2.29%
Cc1cn(-c2cc(NC(=O)c3ccc(C)c(Nc4nccc(-c5cccnc5)n4)c3)cc(C(F)(F)F)c2)cn1,,,human,"dose not given, between 12 and 6 months, within treated group",direction not given,ADAS-Cog score change,2.37
CCSc1nc2ccccc2n1Cc1nnc(-c2ccc(Cl)cc2)o1,,"relaxation, calcium antagonist",isolated rabbit jejunum,with: 80 mM K+ contraction,,EC50,0.45 ± 0.08 µg/mL
CCCCC1(CCCC)CN(c2ccccc2)c2cc(SC)c(OCC(=O)N[C@@H](C(=O)NCC(=O)O)c3ccccc3)cc2S(=O)(=O)C1,,measured: HDL cholesterol,"human, serum","20 mg once daily, day 14",,serum HDL-C,53.8 mg/dL
Oc1ccc(N=Nc2ccc(-c3nc4ccccc4s3)cc2)cc1CN(Cc1ccccn1)Cc1ccccn1,,ABTS radical scavenging,,unit not given,baseline: Trolox,TEAC,> 2
C[C@H]1O[C@@H](O[C@H]2CC[C@@]3(C)[C@@H](CC[C@]4(C)[C@@H]3C=C[C@]35OC[C@@]6(CCC(C)(C)C[C@H]63)[C@@H](O)C[C@]54C)[C@]2(C)CO)[C@H](O)[C@@H](O[C@@H]2O[C@H](CO)[C@@H](O)[C@H](O)[C@H]2O)[C@H]1O,,measured: CPT-1α,"chronic-plus-binge ethanol-fed mice, AAV8-TBG-Null, liver","dose not given, high dose, unit not given",baseline: AAV8-TBG-Null ethanol group,mRNA level,0.53 and 2.74 and 2.77 and 2.52 and 0.29
CC[C@H](C)[C@@H]1NC(=O)[C@@H]2CCCN2C(=O)[C@H](CC(C)C)NC(=O)[C@H](CC(C)C)NC(=O)CNC(=O)[C@@H](NC(=O)[C@@H](NC(=O)[C@H](CC(=O)O)NC(=O)CNC(=O)[C@@H](NC(=O)[C@H](C)NC(=O)CNC(=O)[C@H](CCCCN)NC(=O)[C@H](CC(C)C)NC(=O)[C@H](CC(C)C)NC(=O)[C@H](CCCCN)NC(=O)CNC(=O)[C@@H](NC(=O)[C@@H](N)CC(C)C)C(C)C)C(C)C)C(C)C)CSSC[C@@H](C(=O)O)NC1=O,,"RNA-seq, measured: Irgc1","mouse, traumatic brain injury model, frontal cortex and hippocampus",dose not given,baseline: TBI alone,log2 fold change,-4.65
C=CCNc1c(O)cc2c(O)c1C[C@@H](C)C[C@H](OC)[C@H](O)[C@@H](C)/C=C(\C)[C@H](OC(N)=O)[C@@H](OC)/C=C\C=C(/C)C(=O)N2,,,human,dose not given,,partial response duration,2.25 years
CN1CCN(S(=O)(=O)c2cc([N+](=O)[O-])ccc2N(CCOS(C)(=O)=O)CCOS(C)(=O)=O)CC1,,,"NSG mice, sample CD PDX","intraperitoneal, 25 mg/kg weekly x3",baseline: vehicle,EFS delay (T-C),66.6 days
CCSc1nc2ccccc2n1Cc1nnc(-c2ccc(F)c(OC)c2)o1,,"relaxation, calcium antagonist",isolated rabbit jejunum,with: 80 mM K+ contraction,,EC50,0.45 ± 0.05 µg/mL
C[C@]12CC[C@H](n3ccnc3)CC1=CC[C@@H]1[C@@H]2CC[C@]2(C)C(n3cnc4ccccc43)=CC[C@@H]12,,Western blot,"male NRG mouse, CWR22Rv1 xenograft, tumour","dose not given, day 16",,AR-V7 protein level,decreased
CCSc1nc2ccccc2n1Cc1nnc(-c2ccc(OC)c(OC)c2)o1,,relaxation,isolated rabbit jejunum,spontaneous contractions,,EC50,0.22 ± 0.01 µg/mL
C[C@]1(CO)Cc2ncn(-c3ccc(C#N)c(Cl)c3)c2C(=O)O1,,"aldosterone synthesis, inhibitor, measured: sodium","healthy Japanese adults, urine","80 mg, 0-24 h at steady state, multiple rising dose",,urinary excretion,126 mmol
CCSc1nc2ccccc2n1Cc1nnc(-c2ccc(C)o2)o1,,"relaxation, calcium antagonist",isolated rabbit jejunum,with: 80 mM K+ contraction,,EC50,0.47 ± 0.07 µg/mL
Clc1cc2c(cc1Cl)Oc1cc(Cl)c(Cl)cc1O2,,untargeted metabolomics,"female Sprague-Dawley rat, liver extract",dose not given,baseline: vehicle,number of changed metabolites,432
C=CC(=O)Nc1cc(Nc2ncc(Cl)c(Nc3ccccc3C(=O)C(=O)N(C)C)n2)c(OC)cc1N1CCN(C)CC1,,RECIST v1.1 best response,human EGFR T790M NSCLC,"oral, 50 mg/day, per-protocol set",,patients with progressive disease,33.3%
CCCCCCCCCN(C)C,,RT-S9 substrate depletion,rainbow trout,"11 °C, non-shaken incubation",,depletion rate constant,0.016 min⁻¹
C[C@H]1CN(c2n[nH]c3nc(N[C@H]4CC[C@H](NS(=O)(=O)CCC(F)(F)F)CC4)ncc23)CCO1,"IGF1R (Homo sapiens, UniProt P08069)","inhibitor, Kinobeads competition profiling",,20 µM,baseline: vehicle,relative abundance,1.08
C[C@]12CC[C@H](O)C[C@H]1CC[C@@H]1[C@@H]2CC[C@]2(C)[C@@H](c3ccc(=O)oc3)CC[C@]12O,,,female nude mouse LCC2 xenograft,"1.0 mg/kg, day 11, tamoxifen-resistant",,tumour volume,69.7 mm3 and 43.2 mm3 and 44.7 mm3 and 46.3 mm3 and 31.8 mm3 and 50 mm3 and 28.9 mm3
Cc1c(C)c2c(c(C)c1O)CCC(C)(C(=O)O)O2 (centres unmarked),,"Cu2+ reduction, CUPRAC",,30 µg/mL,,absorbance,0.224 ± 0.052
CNC(=O)c1c(C)oc2cc(Oc3ccnc4cc(OCCN5CCOCC5)ccc34)ccc12,,measured: soluble VEGFR-3,"patients, plasma","6 mg twice daily, cycle 2 day 1",,decrease,38%
COc1ccc(O)c(C(C)(C)C)c1,,"Cu2+ reduction, CUPRAC",,30 µg/mL,,absorbance,0.626 ± 0.043
CCSc1nc2ccccc2n1Cc1nnc(-c2ccccc2OC)o1,,relaxation,isolated rabbit jejunum,spontaneous contractions,,EC50,0.28 ± 0.01 µg/mL
